Assay results of several laboratories.
Numbered parts are unrelated; each lists some results of a single study. Values joined by “and” are separate records of one study, mostly repeats; a detail may differ.
UniProt Q92918, sequence (whole entry, looked up): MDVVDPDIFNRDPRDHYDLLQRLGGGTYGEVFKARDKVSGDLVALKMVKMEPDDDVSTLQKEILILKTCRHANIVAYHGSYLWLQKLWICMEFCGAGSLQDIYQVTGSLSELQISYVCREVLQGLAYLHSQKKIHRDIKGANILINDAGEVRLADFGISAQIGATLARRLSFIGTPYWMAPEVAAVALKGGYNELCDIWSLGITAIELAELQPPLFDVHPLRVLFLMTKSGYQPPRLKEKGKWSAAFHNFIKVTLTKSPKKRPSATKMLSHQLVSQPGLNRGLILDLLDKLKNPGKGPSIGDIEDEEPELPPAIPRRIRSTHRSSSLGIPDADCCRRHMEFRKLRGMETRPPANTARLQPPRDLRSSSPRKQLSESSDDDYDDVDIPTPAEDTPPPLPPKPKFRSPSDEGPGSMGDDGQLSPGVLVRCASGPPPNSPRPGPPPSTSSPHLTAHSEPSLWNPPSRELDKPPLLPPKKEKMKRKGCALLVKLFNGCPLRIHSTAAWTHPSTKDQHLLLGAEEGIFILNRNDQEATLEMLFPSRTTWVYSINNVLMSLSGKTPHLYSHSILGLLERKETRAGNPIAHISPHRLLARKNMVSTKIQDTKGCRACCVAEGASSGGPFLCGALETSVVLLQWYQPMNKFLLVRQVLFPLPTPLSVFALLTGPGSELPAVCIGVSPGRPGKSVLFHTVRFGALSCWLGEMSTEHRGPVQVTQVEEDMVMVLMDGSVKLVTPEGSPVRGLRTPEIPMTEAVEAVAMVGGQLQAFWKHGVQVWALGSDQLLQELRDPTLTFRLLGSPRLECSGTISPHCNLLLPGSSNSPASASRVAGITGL
UniProt O94804, sequence (whole entry, looked up): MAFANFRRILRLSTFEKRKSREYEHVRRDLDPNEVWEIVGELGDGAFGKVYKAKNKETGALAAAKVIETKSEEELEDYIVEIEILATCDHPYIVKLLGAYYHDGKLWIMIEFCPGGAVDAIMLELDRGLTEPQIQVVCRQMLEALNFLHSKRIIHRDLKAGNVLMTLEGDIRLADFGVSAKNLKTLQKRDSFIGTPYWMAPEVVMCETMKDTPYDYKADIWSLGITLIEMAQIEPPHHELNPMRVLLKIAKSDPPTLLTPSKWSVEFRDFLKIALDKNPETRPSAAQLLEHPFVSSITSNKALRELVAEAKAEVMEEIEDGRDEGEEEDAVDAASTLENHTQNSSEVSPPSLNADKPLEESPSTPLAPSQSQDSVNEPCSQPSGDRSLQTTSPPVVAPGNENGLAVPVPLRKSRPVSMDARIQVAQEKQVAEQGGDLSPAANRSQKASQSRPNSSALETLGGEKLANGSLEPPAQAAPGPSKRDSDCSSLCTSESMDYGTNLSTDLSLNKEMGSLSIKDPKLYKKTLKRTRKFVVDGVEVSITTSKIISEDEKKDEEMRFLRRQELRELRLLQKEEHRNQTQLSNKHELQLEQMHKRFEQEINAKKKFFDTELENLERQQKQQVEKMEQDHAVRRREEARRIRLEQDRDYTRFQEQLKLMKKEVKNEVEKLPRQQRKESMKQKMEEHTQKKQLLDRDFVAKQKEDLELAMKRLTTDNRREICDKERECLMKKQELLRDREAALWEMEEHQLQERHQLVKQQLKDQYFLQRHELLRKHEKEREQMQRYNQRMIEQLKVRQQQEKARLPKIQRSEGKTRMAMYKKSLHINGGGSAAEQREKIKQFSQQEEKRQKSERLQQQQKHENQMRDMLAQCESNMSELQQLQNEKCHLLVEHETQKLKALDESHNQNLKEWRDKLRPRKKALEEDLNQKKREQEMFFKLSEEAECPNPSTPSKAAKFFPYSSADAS
UniProt Q8N4C8, sequence (whole entry, looked up): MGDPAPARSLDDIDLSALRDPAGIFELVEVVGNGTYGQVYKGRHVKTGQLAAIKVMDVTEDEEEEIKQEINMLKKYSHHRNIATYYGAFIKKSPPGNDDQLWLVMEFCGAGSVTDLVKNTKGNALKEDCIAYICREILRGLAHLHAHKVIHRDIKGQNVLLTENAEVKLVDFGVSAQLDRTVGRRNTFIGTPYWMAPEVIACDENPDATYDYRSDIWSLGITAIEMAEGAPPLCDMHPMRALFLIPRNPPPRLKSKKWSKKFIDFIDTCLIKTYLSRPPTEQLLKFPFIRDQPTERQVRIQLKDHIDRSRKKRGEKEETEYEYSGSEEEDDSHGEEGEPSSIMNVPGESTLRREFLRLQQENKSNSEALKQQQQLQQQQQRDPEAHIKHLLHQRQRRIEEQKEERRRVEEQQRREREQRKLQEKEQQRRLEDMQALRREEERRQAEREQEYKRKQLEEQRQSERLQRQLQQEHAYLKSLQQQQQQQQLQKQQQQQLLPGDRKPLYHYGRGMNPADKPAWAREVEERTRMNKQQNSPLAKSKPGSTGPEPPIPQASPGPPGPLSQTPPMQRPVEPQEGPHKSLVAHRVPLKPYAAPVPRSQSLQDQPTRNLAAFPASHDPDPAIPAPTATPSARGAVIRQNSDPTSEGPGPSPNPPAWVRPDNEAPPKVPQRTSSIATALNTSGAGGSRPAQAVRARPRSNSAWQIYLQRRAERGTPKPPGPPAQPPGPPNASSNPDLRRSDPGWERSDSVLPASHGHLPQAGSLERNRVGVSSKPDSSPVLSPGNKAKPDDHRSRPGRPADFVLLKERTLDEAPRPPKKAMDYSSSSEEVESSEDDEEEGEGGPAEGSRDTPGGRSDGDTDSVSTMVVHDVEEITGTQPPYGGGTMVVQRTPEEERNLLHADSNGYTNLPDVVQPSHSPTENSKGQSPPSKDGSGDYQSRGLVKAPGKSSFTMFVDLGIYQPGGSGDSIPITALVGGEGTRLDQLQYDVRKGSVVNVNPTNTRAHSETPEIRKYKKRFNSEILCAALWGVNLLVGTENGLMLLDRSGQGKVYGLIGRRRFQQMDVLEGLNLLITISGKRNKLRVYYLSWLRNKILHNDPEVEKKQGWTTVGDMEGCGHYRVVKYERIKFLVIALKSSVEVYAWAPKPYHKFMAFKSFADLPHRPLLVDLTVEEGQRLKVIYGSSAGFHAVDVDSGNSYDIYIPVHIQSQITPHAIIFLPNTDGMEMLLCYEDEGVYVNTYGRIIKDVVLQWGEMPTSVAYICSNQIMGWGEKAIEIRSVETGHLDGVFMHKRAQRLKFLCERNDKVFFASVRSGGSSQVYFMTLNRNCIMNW
UniProt Q9BQI3, sequence (whole entry, looked up): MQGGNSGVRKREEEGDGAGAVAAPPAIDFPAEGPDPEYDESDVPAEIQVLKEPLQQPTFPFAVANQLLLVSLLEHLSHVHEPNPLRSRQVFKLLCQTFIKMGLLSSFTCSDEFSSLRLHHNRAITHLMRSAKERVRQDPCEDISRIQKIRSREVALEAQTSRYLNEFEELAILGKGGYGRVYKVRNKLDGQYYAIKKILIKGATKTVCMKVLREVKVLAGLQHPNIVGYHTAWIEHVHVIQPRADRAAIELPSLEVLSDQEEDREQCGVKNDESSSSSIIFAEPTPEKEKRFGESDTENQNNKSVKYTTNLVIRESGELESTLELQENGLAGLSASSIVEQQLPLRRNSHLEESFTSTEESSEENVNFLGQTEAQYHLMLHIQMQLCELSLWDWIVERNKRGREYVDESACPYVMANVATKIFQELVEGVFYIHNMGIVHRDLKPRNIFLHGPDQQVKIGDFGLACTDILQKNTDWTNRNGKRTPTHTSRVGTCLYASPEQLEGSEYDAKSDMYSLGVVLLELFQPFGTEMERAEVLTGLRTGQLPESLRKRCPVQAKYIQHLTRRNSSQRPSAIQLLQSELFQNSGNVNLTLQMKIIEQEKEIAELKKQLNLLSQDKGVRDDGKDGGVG
UniProt Q8NE63, sequence (whole entry, looked up): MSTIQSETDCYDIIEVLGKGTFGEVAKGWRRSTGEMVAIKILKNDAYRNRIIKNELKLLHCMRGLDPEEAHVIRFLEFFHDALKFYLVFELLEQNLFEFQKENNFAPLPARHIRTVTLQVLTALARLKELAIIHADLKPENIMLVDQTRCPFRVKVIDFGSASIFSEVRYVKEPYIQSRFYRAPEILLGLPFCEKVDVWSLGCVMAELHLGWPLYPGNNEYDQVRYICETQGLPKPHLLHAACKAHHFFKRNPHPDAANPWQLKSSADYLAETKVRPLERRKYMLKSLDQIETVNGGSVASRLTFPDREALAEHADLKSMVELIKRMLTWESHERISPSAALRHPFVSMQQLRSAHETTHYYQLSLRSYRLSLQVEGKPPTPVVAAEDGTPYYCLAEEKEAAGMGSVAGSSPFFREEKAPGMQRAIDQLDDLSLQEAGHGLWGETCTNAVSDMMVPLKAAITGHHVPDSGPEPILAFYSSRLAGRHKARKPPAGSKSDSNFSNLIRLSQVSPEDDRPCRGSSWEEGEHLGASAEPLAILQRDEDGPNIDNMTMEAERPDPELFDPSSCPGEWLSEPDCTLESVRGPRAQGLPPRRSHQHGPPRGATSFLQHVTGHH
UniProt Q13705, sequence (whole entry, looked up): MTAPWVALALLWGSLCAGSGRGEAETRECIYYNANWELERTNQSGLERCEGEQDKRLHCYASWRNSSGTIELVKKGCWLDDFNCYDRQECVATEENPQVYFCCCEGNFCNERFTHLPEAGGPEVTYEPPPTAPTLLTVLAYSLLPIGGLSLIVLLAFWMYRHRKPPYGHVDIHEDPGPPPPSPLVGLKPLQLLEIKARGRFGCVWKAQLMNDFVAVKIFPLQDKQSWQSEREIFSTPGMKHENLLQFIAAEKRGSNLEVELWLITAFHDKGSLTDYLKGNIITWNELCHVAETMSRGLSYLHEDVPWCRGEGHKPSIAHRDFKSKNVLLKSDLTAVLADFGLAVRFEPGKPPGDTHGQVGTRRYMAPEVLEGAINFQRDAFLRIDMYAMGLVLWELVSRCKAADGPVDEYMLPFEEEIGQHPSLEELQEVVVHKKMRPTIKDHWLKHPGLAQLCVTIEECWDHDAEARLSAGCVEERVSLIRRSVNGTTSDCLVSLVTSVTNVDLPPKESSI

Series 1 — effect on: enzyme activity; mode: inhibitor; tested at: 0.5 µM; relative to: control
Target: Serine/threonine-protein kinase TAO2 (TAOK2, Homo sapiens, UniProt Q9UL54)
Target sequence (Q9UL54 1-1235): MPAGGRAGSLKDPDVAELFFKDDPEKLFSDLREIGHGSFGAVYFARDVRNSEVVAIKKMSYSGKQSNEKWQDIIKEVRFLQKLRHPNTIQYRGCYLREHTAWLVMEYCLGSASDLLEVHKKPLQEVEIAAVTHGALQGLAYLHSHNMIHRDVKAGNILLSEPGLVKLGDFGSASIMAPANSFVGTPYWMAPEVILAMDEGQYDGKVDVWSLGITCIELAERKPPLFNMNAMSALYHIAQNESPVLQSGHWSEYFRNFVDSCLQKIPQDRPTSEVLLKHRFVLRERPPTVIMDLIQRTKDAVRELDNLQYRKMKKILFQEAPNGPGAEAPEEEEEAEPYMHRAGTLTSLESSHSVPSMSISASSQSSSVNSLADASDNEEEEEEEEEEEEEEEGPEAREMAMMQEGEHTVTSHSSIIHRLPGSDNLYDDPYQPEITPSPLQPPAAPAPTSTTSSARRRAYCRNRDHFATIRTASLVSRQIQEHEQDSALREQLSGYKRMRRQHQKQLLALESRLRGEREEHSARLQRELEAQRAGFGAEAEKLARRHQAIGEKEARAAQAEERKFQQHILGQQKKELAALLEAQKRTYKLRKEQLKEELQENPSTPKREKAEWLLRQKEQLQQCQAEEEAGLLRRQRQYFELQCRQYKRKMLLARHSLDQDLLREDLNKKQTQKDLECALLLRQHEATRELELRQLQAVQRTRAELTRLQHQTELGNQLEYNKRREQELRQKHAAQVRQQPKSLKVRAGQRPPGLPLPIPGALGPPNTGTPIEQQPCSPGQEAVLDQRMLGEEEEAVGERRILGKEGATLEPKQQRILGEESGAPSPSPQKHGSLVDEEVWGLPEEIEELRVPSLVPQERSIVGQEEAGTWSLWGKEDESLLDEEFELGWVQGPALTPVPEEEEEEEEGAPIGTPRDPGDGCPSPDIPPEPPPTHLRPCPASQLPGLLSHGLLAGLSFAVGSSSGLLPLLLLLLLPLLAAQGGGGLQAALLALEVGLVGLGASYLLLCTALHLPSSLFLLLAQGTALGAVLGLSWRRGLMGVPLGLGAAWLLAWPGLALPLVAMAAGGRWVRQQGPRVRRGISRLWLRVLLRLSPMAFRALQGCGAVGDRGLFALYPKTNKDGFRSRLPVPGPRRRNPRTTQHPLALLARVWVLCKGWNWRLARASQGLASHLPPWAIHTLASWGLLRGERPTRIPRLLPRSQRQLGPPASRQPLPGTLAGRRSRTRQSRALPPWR
SMILES	remaining activity [%]
Ic1cccc(CSc2nnc(-c3ccncc3)o2)c1	105
Cc1nc2cc3nc(-c4cccs4)cnc3cc2n1C	99.7
N#Cc1c(NC(=O)c2cccc3ccccc23)sc2c1CCCC2	99.8
COc1cc2ncnc(Nc3cccc(Cl)c3)c2cc1OC	96.1
Cc1cc2ncc(-c3ccccc3)nc2cc1C	105
Cn1nc2c3c(cccc31)C(=O)c1ccccc1-2	104
N#C/C(=C\c1ccc(O)c(O)c1)C(=O)NCc1ccccc1	95.7
COc1cc2ncnc(Nc3ccc(O)c(Br)c3)c2cc1OC	95.8
CCN(CC)C(=O)c1ccc(Nc2nc(OCC3CCCCC3)c3[nH]cnc3n2)cc1	66
O=C1Nc2ccc(Cl)cc2C1=Cc1cc(Cl)c(O)c(Cl)c1	81.3

Series 2 — cell line: mouse MPNST tumor cells; method: high-content nuclear imaging; measured: cell number; tested at: 10 µM; time: 12 h; notes: mean of 2 replicates; relative to: plate mean; reading: higher = more cells
SMILES	nuclei count
CC(C)CNc1ccnc(NCc2csc(-c3ccccc3)n2)n1	0.62 z-score
OC(c1ccccc1)C1CCN(CCc2ccccc2)CC1 (centres unmarked)	-0.279 z-score
Clc1cccc(Nc2nnc(-c3ccccc3)c3ccccc23)c1	4.74 z-score
COc1c(N2CCNC(C)C2)c(F)cc2c(=O)c(C(=O)O)cn(C3CC3)c12 (centres unmarked)	0.967 z-score
O=C(OC(C(F)(F)F)C(F)(F)F)N1CCN(Cc2cccc(Oc3ccccc3)c2)CC1	2.14 z-score
CCCc1nn(C)c2c(=O)[nH]c(-c3cc(S(=O)(=O)N4CCN(C)CC4)ccc3OCC)nc12	2.03 z-score and 0.947 z-score and 0.564 z-score

Series 3
Structure (SMILES): CC(C)S(=O)(=O)c1cc2c(Nc3ccc4sc(C5CCCC5)nc4c3)ccnc2cc1OCCO
target or system	test	system	setting	CC50
L929	cell viability, CCK-8		without zVAD, 10% FBS, mean of 3	36.4 µM
	CCK-8	L929 RIPK3 knockout, mouse	MEM with 10% FBS, with: zVAD	41.2 µM and 46.6 µM
L929	cell viability, CCK-8		10% FBS, mean of 3, with: zVAD	38.7 µM
L929 RIPK3 knockout	cell viability		without zVAD, 10% FBS, mean of 3	45.7 µM
L929 RIPK3 knockout	cell viability		10% FBS, mean of 3, with: zVAD	44.1 µM
L929 RIPK3 knockout	cell viability		without zVAD, 10% FBS	44.9 µM

Series 4 — effect on: cell-free assay; method: competition with immobilised ligand; tested at: 1 µM
SMILES: CCC(=O)N[C@H]1CC[C@@H](C(=O)N(C)c2ccc(-c3nc4ccccc4o3)cc2)C1
target	remaining binding
EIF2AK1 (Homo sapiens, UniProt Q9BQI3)	93%
MINK1 (Homo sapiens, UniProt Q8N4C8)	89%
Non-receptor tyrosine-protein kinase TYK2, JH2 (TYK2, Homo sapiens, UniProt P29597)	95%
Tyrosine-protein kinase ABL1, non-phosphorylated (ABL1, Homo sapiens, UniProt P00519, H396P)	100%
MAP3K15 (Homo sapiens, UniProt Q6ZN16)	100%
LATS2 (Homo sapiens, UniProt Q9NRM7)	67%
PAK5 (Homo sapiens, UniProt Q9P286)	100%
Tyrosine-protein kinase JAK3, JH1 (JAK3, Homo sapiens, UniProt P52333)	100%
PIK3CA (Homo sapiens, UniProt P42336, H1047Y)	97%
HASPIN (Homo sapiens, UniProt Q8TF76)	100%
ACVR2B (Homo sapiens, UniProt Q13705)	100%
MAP4K1 (Homo sapiens, UniProt Q92918)	100%
HIPK4 (Homo sapiens, UniProt Q8NE63)	100%
NEK10 (Homo sapiens, UniProt Q6ZWH5)	80%
ALK (Homo sapiens, UniProt Q9UM73, L1196M)	93%
RIOK2 (Homo sapiens, UniProt Q9BVS4)	84%
DSTYK (Homo sapiens, UniProt Q6XUX3)	87%
STK10 (Homo sapiens, UniProt O94804)	100%
MAP3K19 (Homo sapiens, UniProt Q56UN5)	69%
BMP2K (Homo sapiens, UniProt Q9NSY1)	91%
PTK2 (Homo sapiens, UniProt Q05397)	100%
Ribosomal protein S6 kinase alpha-3, C-terminal kinase domain (RPS6KA3, Homo sapiens, UniProt P51812)	87%

A few entries again (series 3):
target or system	test	system	setting	CC50
L929	cell viability, CCK-8		10% FBS, mean of 3, with: zVAD	38.7 µM
L929 RIPK3 knockout	cell viability		without zVAD, 10% FBS, mean of 3	45.7 µM
